# Assay results gathered from unrelated publications.
# Each numbered part is a random draw from the data of one study; scales do not carry over between parts. Changes are numbered by the printed parent chain.

# Series 1
# Target: Centromere-binding protein 1, full length, N-terminal tag (CBF1, Saccharomyces cerevisiae, UniProt P17106, residues 1-351)
# Chain of UniProt P17106 (whole entry, looked up): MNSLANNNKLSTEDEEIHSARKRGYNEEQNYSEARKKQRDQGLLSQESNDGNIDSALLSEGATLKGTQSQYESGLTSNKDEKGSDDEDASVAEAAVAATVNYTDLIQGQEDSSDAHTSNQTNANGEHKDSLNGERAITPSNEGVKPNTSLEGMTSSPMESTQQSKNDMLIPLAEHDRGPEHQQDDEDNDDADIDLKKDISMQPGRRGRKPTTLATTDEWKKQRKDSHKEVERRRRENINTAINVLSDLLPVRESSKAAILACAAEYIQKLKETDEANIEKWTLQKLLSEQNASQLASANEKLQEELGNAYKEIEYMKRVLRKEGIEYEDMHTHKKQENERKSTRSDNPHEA
# Method: protein-binding microarray
# Molecule type: double-stranded DNA, one strand shown
# Medium: in vitro
# Tested at: 0.8 µM
# Setting: whole 60-bp probe, no competitor
# Direction: higher = stronger binding
# Constant ends, left off below: … GTCTTGATTCGCTTGACGCTGCTG
Sequence,fluorescence intensity [a.u.]
CTAGTATTTTACTGTGACGTACTTTTGCGCGCGTTC,526
TGTACGAAGCTATGTCACGGGGATATAGTAGTTAGG,1820
GAAATAGTCCGTTGTCGTGCGCATTCTTCTGTGTAG,519
GAAAGAACTTGCGATGGTGATGGCAAAAAGCGCTAG,496
GAATACACAGCTACATGTGATATATATCGGGCGTAG,1680
CTAAGTATCAAAAGAAACGTGCATAAGGACATGTTC,606
CTATTTATGCTAGTATACACCACGCATATGTCTTTC,547
GAATTGCTTAGAGTGAACGTGATAGCTTTACGGTAG,1150

# Series 2
# Target: Protein C-ets-1 (ETS1, Homo sapiens, UniProt P14921, residues 1-441, full length assumed)
# Method: protein-binding microarray
# Molecule type: double-stranded DNA, one strand shown
# Medium: in vitro
# Tested at: not given
# Setting: k-mer, scored over probes, only values ≥0.25
# Direction: higher = stronger binding
# Target sequence (chain): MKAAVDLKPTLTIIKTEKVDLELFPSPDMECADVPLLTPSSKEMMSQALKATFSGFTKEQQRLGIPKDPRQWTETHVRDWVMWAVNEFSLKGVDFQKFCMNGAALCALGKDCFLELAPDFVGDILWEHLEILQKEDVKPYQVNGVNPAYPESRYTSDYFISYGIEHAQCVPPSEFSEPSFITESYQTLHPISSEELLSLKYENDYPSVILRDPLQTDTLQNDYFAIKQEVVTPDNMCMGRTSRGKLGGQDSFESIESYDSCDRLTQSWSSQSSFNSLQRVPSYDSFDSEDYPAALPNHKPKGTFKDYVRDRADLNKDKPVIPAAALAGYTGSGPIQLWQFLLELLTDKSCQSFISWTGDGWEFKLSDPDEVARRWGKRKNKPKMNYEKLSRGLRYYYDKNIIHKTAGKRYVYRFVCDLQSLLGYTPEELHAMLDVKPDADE
Sequence,E-score
AATACCGG,0.34
GGAAGGCA,0.326
CCGTCCCC,0.285
ACCGGTTA,0.303
TAGGAAGA,0.305
GGAAACTA,0.344
CCTGGAAG,0.374
GGATACCC,0.316

# Series 3
# Target: CCNB3, cyclin fold, Cln2 fusion (human)
# Method: yeast growth competition, sequencing
# Medium: yeast
# Setting: strong parent motif
# Relative to: not given
# Direction: higher = stronger binding
# Starting sequence: viral docking peptide; TSVRRALFTGGSD
Substitution,normalised enrichment score
G10W,1.27
G10S,2.5
T9W,0.856
R4D,-0.343
T9M,1.64
R5N,0.168
R5Y,0.16
V3A,0.804
V3E,0.0622
G11R,1.23
T9F,2.13
G11C,2.01
V3T,0.464
S12G,1.63
G11Q,2.08
L7V,0.264
R4K,0.603

# Series 4
# Target: inorganic phosphate, free oxyanion
# Method: microfluidic competitive inhibition
# Medium: in vitro, cell-free expressed
# Tested at: not given
# Setting: derived from inhibition constants, unchanged parent 615000 nM
# Direction: lower = stronger binding
# Starting sequence: PafA, mature enzyme, eGFP fusion (Elizabethkingia meningoseptica, UniProt Q9KJX5); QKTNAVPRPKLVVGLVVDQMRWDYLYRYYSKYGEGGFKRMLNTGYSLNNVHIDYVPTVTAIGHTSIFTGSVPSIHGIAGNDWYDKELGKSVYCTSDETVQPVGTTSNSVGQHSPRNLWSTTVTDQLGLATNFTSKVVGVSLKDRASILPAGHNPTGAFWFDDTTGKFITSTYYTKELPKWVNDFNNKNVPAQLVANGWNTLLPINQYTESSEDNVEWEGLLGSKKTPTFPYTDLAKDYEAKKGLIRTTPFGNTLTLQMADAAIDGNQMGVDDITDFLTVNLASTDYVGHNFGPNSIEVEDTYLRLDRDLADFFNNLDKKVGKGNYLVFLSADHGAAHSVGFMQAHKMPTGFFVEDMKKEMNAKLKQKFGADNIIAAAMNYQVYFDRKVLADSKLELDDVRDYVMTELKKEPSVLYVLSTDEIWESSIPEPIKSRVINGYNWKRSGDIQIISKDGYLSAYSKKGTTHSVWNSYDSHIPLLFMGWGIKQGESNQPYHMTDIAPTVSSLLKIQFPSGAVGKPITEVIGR
Substitution,phosphate dissociation constant [µM]
G44A,592
G369A,632
S46G,473
F160G,545

# Some of these lines once more (series 1):
Sequence,fluorescence intensity [a.u.]
GAAATAGTCCGTTGTCGTGCGCATTCTTCTGTGTAG,519
GAAAGAACTTGCGATGGTGATGGCAAAAAGCGCTAG,496
GAATACACAGCTACATGTGATATATATCGGGCGTAG,1680
CTAAGTATCAAAAGAAACGTGCATAAGGACATGTTC,606
CTATTTATGCTAGTATACACCACGCATATGTCTTTC,547
